Measured values collected from several papers.
Compare with care: the assays were run in different laboratories. ± gives the spread as reported.
Chain of UniProt P03956 (whole entry, looked up): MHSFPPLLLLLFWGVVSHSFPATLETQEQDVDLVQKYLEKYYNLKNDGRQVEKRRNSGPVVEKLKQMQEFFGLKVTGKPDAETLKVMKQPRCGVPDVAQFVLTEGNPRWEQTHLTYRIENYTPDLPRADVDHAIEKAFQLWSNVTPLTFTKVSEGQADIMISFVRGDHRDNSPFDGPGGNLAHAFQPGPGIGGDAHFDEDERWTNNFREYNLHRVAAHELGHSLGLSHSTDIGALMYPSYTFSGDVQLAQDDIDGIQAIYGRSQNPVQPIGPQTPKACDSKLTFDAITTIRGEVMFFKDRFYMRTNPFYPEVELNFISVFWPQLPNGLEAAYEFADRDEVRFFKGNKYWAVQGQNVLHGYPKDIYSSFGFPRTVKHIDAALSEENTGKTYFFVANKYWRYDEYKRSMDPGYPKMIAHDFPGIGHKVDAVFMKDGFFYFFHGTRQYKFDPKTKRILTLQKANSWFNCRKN
Chain of UniProt Q8N6U8 (whole entry, looked up): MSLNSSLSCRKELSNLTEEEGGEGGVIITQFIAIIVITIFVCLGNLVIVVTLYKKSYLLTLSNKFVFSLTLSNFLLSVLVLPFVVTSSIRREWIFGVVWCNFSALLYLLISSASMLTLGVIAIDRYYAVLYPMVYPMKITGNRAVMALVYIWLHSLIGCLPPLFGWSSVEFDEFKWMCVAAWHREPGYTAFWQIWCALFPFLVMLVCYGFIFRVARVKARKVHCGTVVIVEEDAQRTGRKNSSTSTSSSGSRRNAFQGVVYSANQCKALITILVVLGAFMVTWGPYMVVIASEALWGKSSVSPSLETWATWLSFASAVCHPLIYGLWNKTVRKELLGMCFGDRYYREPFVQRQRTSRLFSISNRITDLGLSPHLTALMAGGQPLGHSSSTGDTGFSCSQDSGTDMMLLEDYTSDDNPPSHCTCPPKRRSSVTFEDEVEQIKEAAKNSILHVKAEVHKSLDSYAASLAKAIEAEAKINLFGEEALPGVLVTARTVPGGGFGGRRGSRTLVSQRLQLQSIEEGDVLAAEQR
Chain of UniProt Q96P68 (whole entry, looked up): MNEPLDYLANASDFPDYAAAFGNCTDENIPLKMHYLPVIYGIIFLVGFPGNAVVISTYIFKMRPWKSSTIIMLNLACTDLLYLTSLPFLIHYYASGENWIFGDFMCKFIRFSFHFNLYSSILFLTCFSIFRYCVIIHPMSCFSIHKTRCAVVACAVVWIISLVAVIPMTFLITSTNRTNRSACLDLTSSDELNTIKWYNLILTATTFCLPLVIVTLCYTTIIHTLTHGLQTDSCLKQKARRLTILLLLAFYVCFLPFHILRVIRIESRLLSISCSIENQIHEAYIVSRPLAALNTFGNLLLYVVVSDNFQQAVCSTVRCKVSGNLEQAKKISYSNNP
Chain of UniProt Q14680 (whole entry, looked up): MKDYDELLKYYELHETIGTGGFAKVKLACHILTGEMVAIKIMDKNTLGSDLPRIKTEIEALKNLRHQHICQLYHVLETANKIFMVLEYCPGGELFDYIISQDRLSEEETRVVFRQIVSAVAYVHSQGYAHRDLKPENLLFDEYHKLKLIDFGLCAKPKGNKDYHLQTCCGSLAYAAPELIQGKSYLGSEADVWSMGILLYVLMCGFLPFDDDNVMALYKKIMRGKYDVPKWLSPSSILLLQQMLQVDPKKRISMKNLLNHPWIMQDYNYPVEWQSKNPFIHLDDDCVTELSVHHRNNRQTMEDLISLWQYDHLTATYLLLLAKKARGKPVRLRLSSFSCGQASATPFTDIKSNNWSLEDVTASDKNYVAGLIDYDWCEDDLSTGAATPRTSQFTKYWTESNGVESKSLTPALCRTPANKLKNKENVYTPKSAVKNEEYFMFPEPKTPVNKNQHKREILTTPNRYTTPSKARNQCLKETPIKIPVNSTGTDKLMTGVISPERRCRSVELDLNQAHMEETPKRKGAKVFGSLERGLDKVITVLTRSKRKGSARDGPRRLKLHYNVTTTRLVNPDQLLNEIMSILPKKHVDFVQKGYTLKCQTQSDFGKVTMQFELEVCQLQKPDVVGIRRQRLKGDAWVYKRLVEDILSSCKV

`CC[C@H](C)[C@@H]1NC(=O)[C@@H]2CCCN2C(=O)[C@H](CC(C)C)NC(=O)[C@H](CC(C)C)NC(=O)CNC(=O)[C@@H](NC(=O)[C@@H](NC(=O)[C@H](CC(=O)O)NC(=O)CNC(=O)[C@@H](NC(=O)[C@H](C)NC(=O)CNC(=O)[C@H](CCCCN)NC(=O)[C@H](CC(C)C)NC(=O)[C@H](CC(C)C)NC(=O)[C@H](CCCCN)NC(=O)CNC(=O)[C@@H](NC(=O)[C@@H](N)CC(C)C)C(C)C)C(C)C)C(C)C)CSSC[C@@H](C(=O)O)NC1=O` — result for “log2 fold change”: -3.4 (RNA-seq, refers to: Samsn1; mouse, traumatic brain injury model, frontal cortex and hippocampus; dose not given; relative to: TBI alone).
The tissue uptake of `O=C(O)C[C@H](NC(=O)[C@H](CC(=O)O)NC(=O)[C@H](CC(=O)O)NC(=O)[C@H](CC(=O)O)NC(=O)[C@H](CC(=O)O)NC(=O)[C@H](CC(=O)O)NC(=O)[C@H](CC(=O)O)NC(=O)[C@H](CC(=O)O)NC(=O)[C@H](CC(=O)O)NC(=O)[C@H](CC(=O)O)NC(=O)[C@H](CC(=O)O)NC(=O)[C@H](CCCCNC(=O)c1ccc(C(=O)NCCOCCOB2BBBBBB3BBBB3B2)cc1)NC(=O)CN1CCN(CC(=O)O)CCN(CC(=O)O)CCN(CC(=O)O)CC1)C(=O)O` [gallium-67 labelled] is reported as 14.2 %ID/g (gamma counting; ddY mouse, male, 6 weeks old, kidney; intravenous, 37 kBq, 10 min).
`C[C@@H](O)[C@@H](CO)NC(=O)[C@@H](CCCNC(=N)N)NC(=O)[C@@H]1CCCN1C(=O)[C@@H]1CSSC[C@H](NC(=O)[C@H](Cc2ccccc2)NC(=O)CN2CCN(CC(=O)O)CCN(CC(=O)O)CCN(CC(=O)O)CC2)C(=O)N[C@@H](Cc2ccc(O)cc2)C(=O)N[C@@H](Cc2ccccc2)C(=O)N[C@@H](CCC(N)=O)C(=O)N[C@@H](CC(N)=O)C(=O)N1` [gallium-68 labelled] gave a tissue uptake of 0.07 %ID/g (Wistar rat, spleen; intravenous, 8 MBq, 120 min, group mean).
`CC[C@H](C)[C@H](NC(=O)[C@H](Cc1ccccc1)NC(=O)[C@H](CCC(=O)O)NC(=O)[C@H](CCCNC(=N)N)NC(=O)[C@H](C)NC(=O)[C@H](C)NC(=O)[C@H](CCC(N)=O)NC(=O)[C@H](CCC(=O)O)NC(=O)[C@H](CCC(=O)O)NC(=O)[C@H](CC(C)C)NC(=O)[C@H](Cc1ccc(O)cc1)NC(=O)[C@H](CO)NC(=O)[C@H](CO)NC(=O)[C@@H](NC(=O)[C@H](CC(=O)O)NC(=O)[C@H](CO)NC(=O)[C@@H](NC(=O)[C@H](Cc1ccccc1)NC(=O)[C@@H](NC(=O)CNC(=O)[C@H](CCC(=O)O)NC(=O)[C@H](C)NC(=O)CCc1c[nH]cn1)[C@@H](C)O)[C@@H](C)O)C(C)C)C(=O)N[C@@H](C)C(=O)N[C@@H](Cc1c[nH]c2ccccc12)C(=O)N[C@@H](CC(C)C)C(=O)N[C@H](C(=O)N[C@@H](CCCNC(=N)N)C(=O)NCC(=O)N[C@@H](CCCNC(=N)N)C(=O)N[C@@H](CCCCNC(=O)COCCOCCNC(=O)COCCOCCNC(=O)CC[C@H](NC(=O)CCCCCCCCCCCCCCCCC(=O)O)C(=O)O)C(=O)NCC(=O)NCC(=O)N[C@@H](CO)C(=O)N[C@@H](CCCCNc1c(NCCCCCN(O)C(=O)CCC(=O)NCCCCCN(O)C(=O)CCC(=O)NCCCCCN(O)C(C)=O)c(=O)c1=O)C(=O)O)C(C)C` [zirconium-89 labelled] gave a tissue uptake of 0.46 %ID/g (rat, spleen; iv, 3 nmol/kg, 72 h, ex vivo).
With `C[C@@H](O)[C@H](NC(=O)[C@@H]1CSSC[C@H](NC(=O)[C@@H](Cc2ccccc2)NC(=O)CN2CCN(CC(=O)[O-])CCN(CC(=O)[O-])CCN(CC(=O)[O-])CC2)C(=O)N[C@@H](Cc2ccc(O)cc2)C(=O)N[C@H](Cc2c[nH]c3ccccc23)C(=O)N[C@@H](CCCCN)C(=O)N[C@@H]([C@@H](C)O)C(=O)N1)C(=O)O.[177Lu+3]` the retention was 32% (MEC1; gamma counter; 60 min efflux after 2 h loading).
`COc1c(CCC[P+](c2ccccc2)(c2ccccc2)c2ccccc2)cc2c(c1OC)OCO2.[I-]` has a TGI of -4.88 log M (SF-268; SRB).
`CO[C@H]1C[C@@H]2CC[C@@H](C)[C@@](O)(O2)C(=O)C(=O)N2CCCC[C@H]2C(=O)O[C@H]([C@H](C)C[C@@H]2CC[C@@H](OC(=O)NCCOCCOCCOCCOCCOCCOCCOCCOCCC(=O)N3CCc4cc(Cn5nc(-c6ccc7oc(N)nc7c6)c6c(N)ncnc65)ccc4C3)[C@H](OC)C2)C[C@@H](O)[C@H](C)/C=C(\C)[C@@H](O)[C@@H](OC)C(=O)[C@H](C)C[C@H](C)/C=C/C=C/C=C/1C` has a TRAE incidence of 0% (phase 1 dose escalation, refers to: fatigue; advanced solid tumour patients; intravenous, 12 mg weekly, grade ≥3).
The EC50 of `CC[C@H](C)[C@H](NC(=O)[C@H](CCCCN)NC(=O)[C@@H](NC(=O)[C@@H](NC(=O)[C@H](CC(C)C)NC(=O)[C@H](CCCNC(=N)N)NC(=O)[C@@H](NC(=O)[C@H](CC(C)C)NC(=O)[C@H](CCCNC(=N)N)NC(=O)CNC(=O)[C@H](Cc1ccccc1)NC(=O)[C@@H](N)CCCNC(=N)N)[C@@H](C)CC)[C@@H](C)CC)C(C)C)C(=O)N[C@@H](C)C(=O)N[C@@H](CCCNC(=N)N)C(=O)N[C@@H](CCCNC(=N)N)C(=O)N[C@@H](C)C(=O)N[C@@H](Cc1c[nH]cn1)C(=O)N[C@@H](CCCNC(=N)N)C(=O)N[C@@H](C)C(=O)N[C@@H](CCCNC(=N)N)C(=O)N[C@@H](CO)C(=O)N[C@@H](C)C(=O)N[C@H](C(=O)N[C@@H](CCCCN)C(=O)N[C@@H](C)C(=O)N[C@@H](C)C(=O)N[C@@H](CO)C(=O)N[C@@H](CC(N)=O)C(=O)N[C@H](C(=O)N[C@@H](C)C(=O)N[C@@H](CCC(=O)O)C(=O)N[C@@H](CC(C)C)C(=O)N[C@@H](C)C(=O)N[C@@H](Cc1c[nH]cn1)C(=O)NCC(=O)N[C@@H](CCC(=O)O)C(=O)O)C(C)C)C(C)C` is reported as 0.19 ± 0.06 µM (SH-SY5Y; intracellular calcium increase, calcium dye fluorescence; 600 s).
`CN1CCN(S(=O)(=O)c2cc([N+](=O)[O-])ccc2N(CCOS(C)(=O)=O)CCOS(C)(=O)=O)CC1` gave an event-free survival of 40.3 days (NSG mice, sample BA PDX; intraperitoneal, 25 mg/kg weekly x3).
`Nc1c(C(=O)N2CCOCC2)sc2nc(Cl)ccc12` has an IC50 of > 100 µM (Mycobacterium tuberculosis; growth inhibition; H37Rv LepB under-expressing).
With `COc1cc(Nc2ncc(F)c(Nc3ccc4c(n3)NC(=O)C(C)(C)O4)n2)cc(OC)c1OC` the IC50 was > 10 µM (Interstitial collagenase (MMP1, Homo sapiens, UniProt P03956); metalloproteinase-1).
`Nc1ncnc2c1ncn2[C@@H]1O[C@@H]2COP(=O)(O)O[C@H]3[C@@H](O)[C@H](n4cnc5c(=O)[nH]cnc54)O[C@@H]3COP(=O)(O)O[C@H]2[C@H]1O` has a fold enrichment of 9.62 (HFF-1; RNA sequencing, refers to: Reactome ISG15 antiviral mechanism; upregulated pathways; relative to: mock).
The inhibition of `CN1CCN(c2cc(-c3ccncc3)c(-c3ccc4ccccc4c3)nn2)CC1` is reported as 3.1% (2-oxoglutarate receptor 1 (OXGR1, Homo sapiens, UniProt Q96P68); antagonist, FLIPR; 10 µM).
`CS(=O)(=O)CCCn1c(Cn2c(=O)n(CC(F)(F)F)c3ccncc32)cc2cc(Cl)ccc21` — result for “LS mean difference vs placebo”: 0.16 log10 copies/mL (respiratory syncytial virus; RT-qPCR; hospitalized infants 1-24 months, nasal swab; oral, 6, 4.5 or 3 mg/kg daily, day 7, mid dose by age cohort; relative to: placebo).
With `COc1cc(CCC[P+](c2ccccc2)(c2ccccc2)c2ccccc2)c(OC)c2c1OCO2.[I-]` the LC50 was -4.09 log M (SF-539; SRB).
With `COc1cc(C(NCCc2c[nH]c3ccccc23)c2nnnn2C(C)(C)C)cc(OC)c1OC` (stereo not drawn) the viability reduction was 23.3% (Schistosoma mansoni; microscopic viability scoring; newly transformed schistosomula; 10 µM, 72 h, prescreen).
For `Cc1c2c(nn1C)CSCc1cc(n(C)n1)CSc1cc(c3ccccc3c1)OCCCc1c(C(=O)O)n(C)c3c-2c(Cl)ccc13`, the fold change was 0.0254 (Staphylococcus aureus; label-free quantitative proteomics, refers to: SAOUHSC_01450 protein; SA113; concentration not given; relative to: untreated control).
For `COc1cccc(-c2cc(=O)c3ccccc3o2)c1N`, relaxin-stimulated cAMP read “no effect” (RXFP1; added: relaxin 10 fM).
With `C[C@@H]1C[C@@]2(N=CCS2)[C@]2(O)O[C@@H]3C[C@@]4(C=O)[C@@H](CC[C@@H]5[C@@H]4CC[C@]4(C)[C@@H](C6=CC(=O)OC6)CC[C@]54O)C[C@H]3O[C@@H]2O1` the viability effect was 51% (Schistosoma mansoni; microscopic viability score; adult worms; 0.1 µM, 72 h).
`CCNC(=O)c1sc2nc(-c3ccc(Cl)cc3Cl)cc(C(F)(F)F)c2c1N` gave an IC50 of > 100 µM (Mycobacterium tuberculosis; growth inhibition; H37Rv LepB under-expressing).
For `Oc1ccc2c3c1O[C@H]1[C@@H](O)CC[C@@]4(O)[C@@H](C2)N(CC2CCC2)CC[C@]314`, “log2 fold change” read 0.144 (G-protein coupled receptor 161 (GPR161, Homo sapiens, UniProt Q8N6U8); β-arrestin recruitment, TANGO luminescence, refers to: GPR161; concentration not given; relative to: basal luminescence).
For `COc1ccc2c[n+](C)c3ccc(OC)cc3c2c1`, the viability reduction was 20% (Schistosoma mansoni; microscopic viability scoring; newly transformed schistosomula; 10 µM, 72 h, prescreen).
`CC[C@H](C)[C@H](NC(=O)[C@H](C)NC(=O)[C@H](CCCCN)NC(=O)[C@H](CC(C)C)NC(=O)[C@H](C)NC(=O)[C@@H](NC(=O)[C@H](Cc1c[nH]cn1)NC(=O)[C@H](CC(C)C)NC(=O)[C@@H](NC(=O)[C@@H](NC(=O)[C@H](CCCCN)NC(=O)[C@H](C)NC(=O)[C@H](C)NC(=O)[C@H](CO)NC(=O)[C@H](CCCCN)NC(=O)[C@H](Cc1ccccc1)NC(=O)[C@@H](NC(=O)[C@H](CCCCN)NC(=O)[C@H](CC(C)C)NC(=O)[C@H](Cc1ccccc1)NC(=O)[C@H](CO)NC(=O)[C@H](CCCCN)NC(=O)[C@H](Cc1c[nH]c2ccccc12)NC(=O)[C@H](CCCCN)NC(C)=O)[C@@H](C)O)[C@@H](C)O)C(C)C)[C@@H](C)O)C(=O)N[C@@H](CO)C(=O)N[C@@H](CO)C(N)=O` has an MIC90 of > 64 mg/L (Enterobacter aerogenes; 40 strains).
The IC50 of `COc1ccc(-c2cc(C(F)(F)F)c3c(N)c(C(=O)NC(C)C4CCCCC4)sc3n2)cc1` (stereo not drawn) is reported as 0.56 ± 0.1 µM (Mycobacterium tuberculosis; growth inhibition; H37Rv LepB under-expressing).
`COc1c(C)c2c(c(O)c1C/C=C(\C)CCC(=O)O)C(=O)OC2` has an IC50 of 1.07 µM (22Rv1; cell proliferation; prostate cancer).
With `COc1ccc(N2C(=O)N(c3c(C)cccc3Cl)Cc3cnc(Nc4ccc(C5CCN(C)CC5)cc4OC)nc32)nc1` the inhibition was 3% (Dual specificity mitogen-activated protein kinase kinase 2 (MAP2K2, Homo sapiens, UniProt P36507); kinase activity, inhibitor; 0.5 µM, MEK2).
The relative abundance of `C[C@H]1CN(c2n[nH]c3nc(N[C@H]4CC[C@H](NS(=O)(=O)CCC(F)(F)F)CC4)ncc23)CCO1` is reported as 1.08 (Maternal embryonic leucine zipper kinase (MELK, Homo sapiens, UniProt Q14680); inhibitor, Kinobeads competition profiling; 20 µM; relative to: vehicle).
For `CCCCC1(CCCC)CN(c2ccccc2)c2cc(SC)c(OCC(=O)N[C@@H](C(=O)NCC(=O)O)c3ccccc3)cc2S(=O)(=O)C1`, the serum LDL-C was 77.4 mg/dL (refers to: LDL cholesterol; human, serum; 15 mg once daily, day 14).
The MIC90 of `O=c1[nH]c2ccc(Cl)cc2c(=S)n1Cc1cccnc1` is reported as > 100 µM (Mycobacterium tuberculosis; PptT conditional knockdown).
`CNc1ncc2c(/C=C/C(=O)N3CCC4(CC3)OCCO4)nn(Cc3cccc(C)c3)c2n1` gave an EC50 of 1.36 µM (CP-A pre-malignant; cell viability, PrestoBlue; 120 h).

Some of these lines once more:
`CC[C@H](C)[C@@H]1NC(=O)[C@@H]2CCCN2C(=O)[C@H](CC(C)C)NC(=O)[C@H](CC(C)C)NC(=O)CNC(=O)[C@@H](NC(=O)[C@@H](NC(=O)[C@H](CC(=O)O)NC(=O)CNC(=O)[C@@H](NC(=O)[C@H](C)NC(=O)CNC(=O)[C@H](CCCCN)NC(=O)[C@H](CC(C)C)NC(=O)[C@H](CC(C)C)NC(=O)[C@H](CCCCN)NC(=O)CNC(=O)[C@@H](NC(=O)[C@@H](N)CC(C)C)C(C)C)C(C)C)C(C)C)CSSC[C@@H](C(=O)O)NC1=O` — result for “log2 fold change”: -3.4 (RNA-seq, refers to: Samsn1; mouse, traumatic brain injury model, frontal cortex and hippocampus; dose not given; relative to: TBI alone).
The tissue uptake of `O=C(O)C[C@H](NC(=O)[C@H](CC(=O)O)NC(=O)[C@H](CC(=O)O)NC(=O)[C@H](CC(=O)O)NC(=O)[C@H](CC(=O)O)NC(=O)[C@H](CC(=O)O)NC(=O)[C@H](CC(=O)O)NC(=O)[C@H](CC(=O)O)NC(=O)[C@H](CC(=O)O)NC(=O)[C@H](CC(=O)O)NC(=O)[C@H](CC(=O)O)NC(=O)[C@H](CCCCNC(=O)c1ccc(C(=O)NCCOCCOB2BBBBBB3BBBB3B2)cc1)NC(=O)CN1CCN(CC(=O)O)CCN(CC(=O)O)CCN(CC(=O)O)CC1)C(=O)O` [gallium-67 labelled] is reported as 14.2 %ID/g (gamma counting; ddY mouse, male, 6 weeks old, kidney; intravenous, 37 kBq, 10 min).
